{"data": "Experimental data of several laboratories", "note": "A part holds a random share of what one study measured.", "UniProt Q13557, sequence (whole entry, looked up)": "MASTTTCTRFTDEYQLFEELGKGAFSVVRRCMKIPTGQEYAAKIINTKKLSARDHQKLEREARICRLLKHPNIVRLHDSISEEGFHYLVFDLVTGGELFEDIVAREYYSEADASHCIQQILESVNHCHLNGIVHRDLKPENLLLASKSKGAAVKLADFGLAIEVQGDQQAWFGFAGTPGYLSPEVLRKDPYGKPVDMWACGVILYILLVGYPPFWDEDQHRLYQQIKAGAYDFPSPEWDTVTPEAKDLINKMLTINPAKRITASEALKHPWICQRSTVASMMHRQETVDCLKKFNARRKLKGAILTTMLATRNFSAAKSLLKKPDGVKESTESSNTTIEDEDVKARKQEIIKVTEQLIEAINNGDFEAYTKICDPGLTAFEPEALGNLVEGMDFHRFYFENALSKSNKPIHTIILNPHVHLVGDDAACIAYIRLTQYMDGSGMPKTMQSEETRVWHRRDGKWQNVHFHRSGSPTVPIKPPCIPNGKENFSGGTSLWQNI", "UniProt P51955, sequence (whole entry, looked up)": "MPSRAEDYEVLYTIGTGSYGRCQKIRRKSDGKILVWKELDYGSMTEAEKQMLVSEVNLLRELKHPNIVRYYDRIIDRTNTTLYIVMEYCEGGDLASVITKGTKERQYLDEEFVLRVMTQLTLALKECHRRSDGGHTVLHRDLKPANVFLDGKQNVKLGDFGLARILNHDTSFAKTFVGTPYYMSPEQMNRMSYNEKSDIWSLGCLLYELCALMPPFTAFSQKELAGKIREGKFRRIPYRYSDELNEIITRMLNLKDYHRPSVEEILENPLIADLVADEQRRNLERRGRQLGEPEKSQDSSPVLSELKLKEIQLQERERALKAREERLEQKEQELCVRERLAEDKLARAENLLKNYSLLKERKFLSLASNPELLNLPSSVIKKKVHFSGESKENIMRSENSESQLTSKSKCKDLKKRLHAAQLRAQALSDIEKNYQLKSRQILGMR", "UniProt P37173, sequence (whole entry, looked up)": "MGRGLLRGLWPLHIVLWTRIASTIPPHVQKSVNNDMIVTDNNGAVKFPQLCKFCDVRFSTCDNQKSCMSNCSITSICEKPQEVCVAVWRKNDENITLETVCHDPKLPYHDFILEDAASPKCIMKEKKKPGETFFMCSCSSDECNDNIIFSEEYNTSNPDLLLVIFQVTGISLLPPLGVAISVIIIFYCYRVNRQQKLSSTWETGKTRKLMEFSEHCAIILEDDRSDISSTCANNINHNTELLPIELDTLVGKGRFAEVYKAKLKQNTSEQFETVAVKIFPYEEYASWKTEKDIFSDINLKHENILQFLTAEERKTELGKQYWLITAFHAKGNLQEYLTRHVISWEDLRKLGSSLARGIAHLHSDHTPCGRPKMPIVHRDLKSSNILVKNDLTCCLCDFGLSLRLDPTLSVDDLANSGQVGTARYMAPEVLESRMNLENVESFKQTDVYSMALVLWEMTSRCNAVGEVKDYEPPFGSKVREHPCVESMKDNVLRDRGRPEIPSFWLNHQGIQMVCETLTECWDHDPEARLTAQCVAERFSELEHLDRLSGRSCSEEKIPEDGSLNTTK", "UniProt P52333, sequence (whole entry, looked up)": "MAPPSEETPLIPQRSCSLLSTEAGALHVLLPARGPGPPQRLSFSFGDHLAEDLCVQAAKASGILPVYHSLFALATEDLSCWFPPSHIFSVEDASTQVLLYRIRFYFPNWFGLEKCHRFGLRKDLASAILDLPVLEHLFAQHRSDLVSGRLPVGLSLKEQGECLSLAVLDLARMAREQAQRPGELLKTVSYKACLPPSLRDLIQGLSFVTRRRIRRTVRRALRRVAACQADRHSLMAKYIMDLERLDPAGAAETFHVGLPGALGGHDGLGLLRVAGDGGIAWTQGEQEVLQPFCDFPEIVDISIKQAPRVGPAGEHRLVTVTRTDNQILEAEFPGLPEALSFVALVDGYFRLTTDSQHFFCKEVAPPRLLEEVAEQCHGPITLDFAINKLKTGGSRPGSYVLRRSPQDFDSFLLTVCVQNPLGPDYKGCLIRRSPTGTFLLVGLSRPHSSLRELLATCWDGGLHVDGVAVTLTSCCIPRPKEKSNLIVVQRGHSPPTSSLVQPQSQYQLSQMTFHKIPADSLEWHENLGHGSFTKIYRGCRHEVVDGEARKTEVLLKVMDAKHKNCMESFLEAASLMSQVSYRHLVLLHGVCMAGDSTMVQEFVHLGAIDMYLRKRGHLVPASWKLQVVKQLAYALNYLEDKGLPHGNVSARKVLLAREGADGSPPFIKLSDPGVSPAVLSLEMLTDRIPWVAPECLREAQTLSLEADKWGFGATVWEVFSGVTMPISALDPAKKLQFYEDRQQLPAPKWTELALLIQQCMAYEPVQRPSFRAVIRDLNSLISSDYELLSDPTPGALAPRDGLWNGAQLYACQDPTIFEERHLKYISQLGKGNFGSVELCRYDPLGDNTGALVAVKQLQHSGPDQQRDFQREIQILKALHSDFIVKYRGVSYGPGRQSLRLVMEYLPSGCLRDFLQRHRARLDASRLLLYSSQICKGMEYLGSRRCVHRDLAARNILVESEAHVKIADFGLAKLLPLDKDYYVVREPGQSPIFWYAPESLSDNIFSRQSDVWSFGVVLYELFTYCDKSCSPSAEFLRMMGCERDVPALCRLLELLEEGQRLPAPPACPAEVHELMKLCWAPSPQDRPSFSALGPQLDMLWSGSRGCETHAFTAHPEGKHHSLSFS", "UniProt O95747, sequence (whole entry, looked up)": "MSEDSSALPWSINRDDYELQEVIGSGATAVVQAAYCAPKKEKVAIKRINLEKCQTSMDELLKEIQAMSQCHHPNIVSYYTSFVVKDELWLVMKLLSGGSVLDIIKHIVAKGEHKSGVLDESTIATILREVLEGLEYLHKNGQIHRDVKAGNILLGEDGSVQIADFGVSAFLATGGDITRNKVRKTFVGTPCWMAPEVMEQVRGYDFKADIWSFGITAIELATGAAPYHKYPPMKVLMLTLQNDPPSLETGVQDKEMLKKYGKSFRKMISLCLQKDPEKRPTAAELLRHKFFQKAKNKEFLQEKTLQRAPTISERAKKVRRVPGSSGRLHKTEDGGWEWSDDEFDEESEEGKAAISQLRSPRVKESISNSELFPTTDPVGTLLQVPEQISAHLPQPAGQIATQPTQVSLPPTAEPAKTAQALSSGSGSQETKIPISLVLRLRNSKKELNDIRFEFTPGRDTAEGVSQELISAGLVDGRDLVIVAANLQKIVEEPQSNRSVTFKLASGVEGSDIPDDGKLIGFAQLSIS", "UniProt Q9UIK4, sequence (whole entry, looked up)": "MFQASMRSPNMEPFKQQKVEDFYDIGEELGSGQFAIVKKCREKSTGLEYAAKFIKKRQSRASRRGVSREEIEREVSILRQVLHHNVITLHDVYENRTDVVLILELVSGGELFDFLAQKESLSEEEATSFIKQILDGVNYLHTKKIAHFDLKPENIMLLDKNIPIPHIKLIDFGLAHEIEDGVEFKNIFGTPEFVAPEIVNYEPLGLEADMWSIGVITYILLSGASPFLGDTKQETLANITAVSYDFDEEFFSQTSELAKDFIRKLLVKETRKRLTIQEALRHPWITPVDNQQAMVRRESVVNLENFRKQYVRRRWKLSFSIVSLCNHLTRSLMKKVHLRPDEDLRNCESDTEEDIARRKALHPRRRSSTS", "UniProt P11802, sequence (whole entry, looked up)": "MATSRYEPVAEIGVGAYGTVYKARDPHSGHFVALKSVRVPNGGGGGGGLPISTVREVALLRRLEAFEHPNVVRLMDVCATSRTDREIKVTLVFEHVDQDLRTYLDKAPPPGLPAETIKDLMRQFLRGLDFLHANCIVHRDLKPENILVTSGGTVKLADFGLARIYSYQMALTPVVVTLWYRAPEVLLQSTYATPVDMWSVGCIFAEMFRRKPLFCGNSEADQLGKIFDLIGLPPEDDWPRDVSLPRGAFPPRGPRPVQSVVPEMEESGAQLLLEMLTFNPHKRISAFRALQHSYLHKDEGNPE", "UniProt O94804, sequence (whole entry, looked up)": "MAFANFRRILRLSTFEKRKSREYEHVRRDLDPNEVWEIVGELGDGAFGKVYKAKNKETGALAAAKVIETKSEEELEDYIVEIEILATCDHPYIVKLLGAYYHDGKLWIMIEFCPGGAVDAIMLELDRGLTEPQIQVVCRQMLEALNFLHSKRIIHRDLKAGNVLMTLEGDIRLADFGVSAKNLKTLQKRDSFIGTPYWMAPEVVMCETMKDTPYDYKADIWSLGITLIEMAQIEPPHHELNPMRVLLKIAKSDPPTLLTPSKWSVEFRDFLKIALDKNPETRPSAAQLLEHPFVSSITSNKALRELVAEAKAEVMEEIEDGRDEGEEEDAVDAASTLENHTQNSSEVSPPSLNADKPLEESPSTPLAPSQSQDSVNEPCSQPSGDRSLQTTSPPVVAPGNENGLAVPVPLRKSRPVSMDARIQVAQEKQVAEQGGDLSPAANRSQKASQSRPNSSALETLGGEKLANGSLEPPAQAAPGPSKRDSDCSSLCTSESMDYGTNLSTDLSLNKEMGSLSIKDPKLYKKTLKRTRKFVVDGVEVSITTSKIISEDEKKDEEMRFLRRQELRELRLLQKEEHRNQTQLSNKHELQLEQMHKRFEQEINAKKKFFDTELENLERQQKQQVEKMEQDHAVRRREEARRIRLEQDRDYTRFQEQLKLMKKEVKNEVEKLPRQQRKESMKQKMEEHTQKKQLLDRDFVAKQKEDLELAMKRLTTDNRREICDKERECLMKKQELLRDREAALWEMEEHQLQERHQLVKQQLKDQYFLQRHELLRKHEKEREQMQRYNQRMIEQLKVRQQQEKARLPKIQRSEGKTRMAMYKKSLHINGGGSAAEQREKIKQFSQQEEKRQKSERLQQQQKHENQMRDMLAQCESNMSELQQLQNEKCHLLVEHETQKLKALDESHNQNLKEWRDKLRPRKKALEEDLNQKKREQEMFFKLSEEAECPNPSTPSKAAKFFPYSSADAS"}
{"data": "Block 1", "SMILES": "C[C@H](c1ccc(F)cc1)N(Cc1cccc(C(=O)O)c1)C(=O)c1cnc2ccccc2c1", "observed": "cell-free assay", "technique": "competition with immobilised ligand", "tested at": "1 µM"}
{"target": "Serine/threonine-protein kinase PAK 1 (PAK1, Homo sapiens, UniProt Q13153)", "remaining binding": "100%"}
{"target": "Tyrosine-protein kinase JAK3, JH1 (JAK3, Homo sapiens, UniProt P52333)", "remaining binding": "100%"}
{"target": "Tyrosine-protein kinase ABL1, phosphorylated (ABL1, Homo sapiens, UniProt P00519, Y253F)", "remaining binding": "100%"}
{"target": "Serine/threonine-protein kinase Nek6 (NEK6, Homo sapiens, UniProt Q9HC98)", "remaining binding": "92%"}
{"data": "Block 2", "target": "Histone acetyltransferase KAT6A, winged helix 1, GST fusion (KAT6A, Homo sapiens, UniProt Q92794, residues 1-85)", "technique": "protein binding microarray", "form": "double-stranded DNA, one strand shown", "medium": "in vitro", "tested at": "not given", "notes": "8-mer, flanks averaged, mean of 2 arrays, mostly near background", "baseline": "not given", "reading": "higher = stronger binding", "Construct (chain)": "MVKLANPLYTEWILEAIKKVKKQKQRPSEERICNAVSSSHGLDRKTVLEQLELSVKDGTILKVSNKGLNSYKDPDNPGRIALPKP"}
{"Strand": "ACATGACT", "E-score": -0.146}
{"Strand": "AAGACCTC", "E-score": -0.00821}
{"Strand": "CCGGGCTC", "E-score": 0.202}
{"Strand": "TGGTCTAA", "E-score": -0.167}
{"Strand": "ATCAATGC", "E-score": 0.0172}
{"Strand": "AATTTACG", "E-score": 0.0143}
{"Strand": "CCAGTCAA", "E-score": -0.165}
{"Strand": "AGCATACG", "E-score": 0.088}
{"data": "Block 3", "Structure (SMILES)": "O=C1Cc2c([nH]c3ccc(Br)cc23)-c2ccccc2N1", "observed": "enzyme activity", "action": "inhibitor", "tested at": "0.5 µM", "baseline": "control"}
{"target": "Tyrosine-protein kinase Lyn, isoform B (LYN, Homo sapiens, UniProt P07948)", "remaining activity": "75.4%"}
{"target": "STE20/SPS1-related proline-alanine-rich protein kinase (STK39, Homo sapiens, UniProt Q9UEW8)", "remaining activity": "90.1%"}
{"target": "Serine/threonine-protein kinase OSR1 (OXSR1, Homo sapiens, UniProt O95747)", "remaining activity": "107%"}
{"target": "Inhibitor of nuclear factor kappa-B kinase subunit beta (IKBKB, Homo sapiens, UniProt O14920)", "remaining activity": "101%"}
{"target": "Protein kinase C alpha type (PRKCA, Homo sapiens, UniProt P17252)", "remaining activity": "98.6%"}
{"target": "Cyclin-dependent kinase 4, with cyclin D1 (CDK4, Homo sapiens, UniProt P11802)", "remaining activity": "84%"}
{"target": "Calcium/calmodulin-dependent protein kinase kinase 2 (CAMKK2, Homo sapiens, UniProt Q96RR4)", "remaining activity": "77.8%"}
{"target": "Death-associated protein kinase 2 (DAPK2, Homo sapiens, UniProt Q9UIK4)", "remaining activity": "100%"}
{"target": "cGMP-dependent protein kinase 1, isoform beta (PRKG1, Homo sapiens, UniProt Q13976)", "remaining activity": "93%"}
{"target": "G protein-coupled receptor kinase 3 (GRK3, Homo sapiens, UniProt P35626)", "remaining activity": "109%"}
{"target": "Cyclin-dependent kinase 5, with p25 (CDK5, Homo sapiens, UniProt Q00535)", "remaining activity": "64.8%"}
{"target": "cAMP-dependent protein kinase catalytic subunit alpha (PRKACA, Homo sapiens, UniProt P17612)", "remaining activity": "102%"}
{"target": "Calcium/calmodulin-dependent protein kinase type II subunit delta (CAMK2D, Homo sapiens, UniProt Q13557)", "remaining activity": "91.1%"}
{"target": "Serine/threonine-protein kinase STK11 (STK11, Homo sapiens, UniProt Q15831)", "remaining activity": "95.7%"}
{"target": "Serine/threonine-protein kinase Chk2 (CHEK2, Homo sapiens, UniProt O96017)", "remaining activity": "59%"}
{"target": "Inhibitor of nuclear factor kappa-B kinase subunit epsilon (IKBKE, Homo sapiens, UniProt Q14164)", "remaining activity": "89.8%"}
{"target": "Mitogen-activated protein kinase kinase kinase 3 (MAP3K3, Homo sapiens, UniProt Q99759)", "remaining activity": "93.2%"}
{"target": "Serine/threonine-protein kinase Nek2 (NEK2, Homo sapiens, UniProt P51955)", "remaining activity": "87.1%"}
{"target": "TGF-beta receptor type-1 (TGFBR1, Homo sapiens, UniProt P36897)", "remaining activity": "97.7%"}
{"target": "Mitogen-activated protein kinase 9 (MAPK9, Homo sapiens, UniProt P45984)", "remaining activity": "93.8%"}
{"target": "Protein kinase C beta type, isoform beta-I (PRKCB, Homo sapiens, UniProt P05771)", "remaining activity": "93.1%"}
{"target": "TGF-beta receptor type-2 (TGFBR2, Homo sapiens, UniProt P37173)", "remaining activity": "74.2%"}
{"target": "Serine/threonine-protein kinase 10 (STK10, Homo sapiens, UniProt O94804)", "remaining activity": "89.8%"}
{"target": "Death-associated protein kinase 1 (DAPK1, Homo sapiens, UniProt P53355)", "remaining activity": "101%"}
{"data": "Block 4", "cell line": "HaCaT", "tested at": "100 µM", "time": "18 h"}
{"SMILES": "CCN(CCCc1ccccc1)CCCc1ccccc1", "viability": "57.9%"}
{"SMILES": "C=C(c1ccc(C(=O)O)cc1)c1cc2c(cc1C)C(C)(C)CCC2(C)C", "viability": "20.5%"}
{"SMILES": "C=CC[N+]1([C@H]2C[C@H]3[C@@H]4CC[C@H]5C[C@H](O)[C@@H](N6CCOCC6)C[C@]5(C)[C@H]4CC[C@]3(C)[C@H]2OC(C)=O)CCCC1", "viability": "80.4%"}
{"data": "Block 5", "host": "mouse", "medium": "microsomes or S9", "tested at": "2 µM", "time": "0.5 h"}
{"Structure (SMILES)": "CCc1ccc(NC(=O)CN(CCc2ccccc2)S(=O)(=O)c2ccc(C)cc2)cc1", "remaining compound [%]": 0.019}
{"Structure (SMILES)": "Fc1ccc(-c2cc(-c3nc4c5c(ncn4n3)CCC5)[nH]n2)cc1", "remaining compound [%]": 22.2}
{"Structure (SMILES)": "CN(/C=N/c1c(F)c(F)cc(F)c1F)/C=N/c1c(F)c(F)cc(F)c1F", "remaining compound [%]": 3.7}
{"Structure (SMILES)": "CCOC(=O)c1sc(NC(=O)c2cc(OCC)c(OCC)c(OCC)c2)c(C(N)=O)c1C", "remaining compound [%]": 58.8}
{"Structure (SMILES)": "CC(C)n1c(CNC(=O)c2cc(-c3ccco3)n[nH]2)nc2ccccc21", "remaining compound [%]": 15.8}
{"Structure (SMILES)": "Clc1ccccc1/C=C/c1nnc(-c2ccccc2Cl)o1", "remaining compound [%]": 86.7}
{"data": "Single results of other studies"}
{"SMILES": "CC(C)C[C@@H]1NC(=O)[C@H](CC(C)C)NC(=O)[C@H](CC(C)C)NC(=O)[C@H](CC(C)C)NC(=O)[C@@H](CCC(=O)N2CCCC2)NC(=O)[C@H](C)NC(=O)[C@H](C)NC1=O", "test": "PRP chromatography", "conditions": "linear fit, 1 mL", "quantity": "logD 1,9-decadiene/water", "value": "-1.84 log units"}
{"SMILES": "CC(C)n1cnc(-c2ccc(F)cc2)c1-c1ncc(C(=O)Nc2ccc(N3CCN(C)CC3)cc2)[nH]1", "system": "human, idiopathic pulmonary fibrosis", "conditions": "30 mg once daily, trial, treatment-emergent", "quantity": "patients with Weight increased", "value": "0%"}
{"SMILES": "Cl.O=C1[C@H]2CCCC[C@H]2C(=O)N1CCCCN1CCN(c2nsc3ccccc23)CC1", "target or system": "bovine turbinate cells", "conditions": "concentration not given", "quantity": "viability", "value": "94%"}
{"SMILES": "CC(C)C[C@@H]1NC(=O)[C@H](CC(C)C)NC(=O)[C@@H](CC(C)C)NC(=O)[C@@H](CC(C)C)NC(=O)[C@@H](Cc2cscn2)NC(=O)[C@H](CC(C)C)NC(=O)[C@@H](CC(C)C)NC1=O", "test": "PRP chromatography", "conditions": "linear fit, 1 mL", "quantity": "logD 1,9-decadiene/water", "value": "1.57 log units"}
{"note": "For quick reference, copied from above (block 2):"}
{"Strand": "ACATGACT", "E-score": -0.146}
{"Strand": "ATCAATGC", "E-score": 0.0172}
{"Strand": "CCAGTCAA", "E-score": -0.165}
{"Strand": "AATTTACG", "E-score": 0.0143}
